# Measured values of several laboratories.
# Each numbered part is a random draw from the data of one study; scales do not carry over between parts. Substitutions count along the parent as printed.

# Set 1 — method: universal PBM; molecule type: double-stranded DNA, one strand shown; medium: in vitro; tested at: 600 nM; reading: higher = stronger binding
# Target: Sal-like protein 4, full length isoform A (SALL4, Homo sapiens, UniProt Q9UJQ4, residues 1-1053)
# UniProt Q9UJQ4, sequence (whole entry, looked up): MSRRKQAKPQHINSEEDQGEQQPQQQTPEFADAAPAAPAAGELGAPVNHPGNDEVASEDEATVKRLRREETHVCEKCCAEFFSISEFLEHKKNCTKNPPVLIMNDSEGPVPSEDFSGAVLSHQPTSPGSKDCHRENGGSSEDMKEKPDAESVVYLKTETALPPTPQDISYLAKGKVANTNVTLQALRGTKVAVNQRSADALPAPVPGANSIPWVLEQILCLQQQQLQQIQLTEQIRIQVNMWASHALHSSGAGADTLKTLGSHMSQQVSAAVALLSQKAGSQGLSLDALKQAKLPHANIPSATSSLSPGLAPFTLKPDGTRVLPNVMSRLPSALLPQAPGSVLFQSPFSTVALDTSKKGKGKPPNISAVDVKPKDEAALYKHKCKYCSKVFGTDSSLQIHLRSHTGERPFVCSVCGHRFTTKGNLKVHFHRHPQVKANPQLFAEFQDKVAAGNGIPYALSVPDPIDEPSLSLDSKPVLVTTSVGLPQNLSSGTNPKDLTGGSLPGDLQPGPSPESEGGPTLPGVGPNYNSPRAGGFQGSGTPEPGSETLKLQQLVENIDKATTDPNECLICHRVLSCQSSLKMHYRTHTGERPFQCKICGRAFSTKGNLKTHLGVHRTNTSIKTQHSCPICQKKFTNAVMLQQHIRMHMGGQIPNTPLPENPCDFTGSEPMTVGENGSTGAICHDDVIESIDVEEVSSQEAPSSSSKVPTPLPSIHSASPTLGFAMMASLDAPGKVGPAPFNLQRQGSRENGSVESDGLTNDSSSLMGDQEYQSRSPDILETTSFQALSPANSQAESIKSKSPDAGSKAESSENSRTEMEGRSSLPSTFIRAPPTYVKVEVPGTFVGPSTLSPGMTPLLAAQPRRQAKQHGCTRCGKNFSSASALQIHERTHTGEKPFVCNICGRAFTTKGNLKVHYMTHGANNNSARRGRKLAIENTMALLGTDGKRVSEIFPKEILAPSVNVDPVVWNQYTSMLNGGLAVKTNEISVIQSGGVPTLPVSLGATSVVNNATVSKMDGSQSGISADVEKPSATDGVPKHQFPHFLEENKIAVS
# Notes: 8-mer, flanks averaged, mean of replicates
Oligonucleotide,E-score
CCCTCGCA,-0.143
CGAGGGGC,-0.358
GTGAACAA,0.0157
CTGAGACA,-0.0873
CTTCGAAC,-0.146
AGTACCGG,-0.255
GAAGTCGA,0.0236
CATTAACG,0.12
AGCCCTGA,-0.164
GTGCACGA,-0.108
CTTCAGAC,-0.11
CGACCTCA,-0.143
CGAAATCG,0.00475
AAATCCAT,0.289
ATACCAAT,0.167
GGGAGCAC,-0.257
ATATGAAG,0.306

# Set 2 — method: DHFR PCA, deep sequencing; medium: yeast; with: (+)-ABA 1.4 µM; reference: wild-type fitted maximum; reading: higher = stronger binding
# Target: ABI1, truncated, D143A, DHFR fusion (Arabidopsis thaliana)
# Notes: methotrexate growth selection, single substitutions
# Starting sequence: PYL1, truncated, DHFR fusion (Arabidopsis thaliana); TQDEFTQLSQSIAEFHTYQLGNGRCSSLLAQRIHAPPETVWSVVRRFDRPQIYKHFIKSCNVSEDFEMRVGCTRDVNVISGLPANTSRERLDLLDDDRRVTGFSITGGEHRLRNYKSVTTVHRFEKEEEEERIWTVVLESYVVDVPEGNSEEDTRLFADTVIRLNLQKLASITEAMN; partner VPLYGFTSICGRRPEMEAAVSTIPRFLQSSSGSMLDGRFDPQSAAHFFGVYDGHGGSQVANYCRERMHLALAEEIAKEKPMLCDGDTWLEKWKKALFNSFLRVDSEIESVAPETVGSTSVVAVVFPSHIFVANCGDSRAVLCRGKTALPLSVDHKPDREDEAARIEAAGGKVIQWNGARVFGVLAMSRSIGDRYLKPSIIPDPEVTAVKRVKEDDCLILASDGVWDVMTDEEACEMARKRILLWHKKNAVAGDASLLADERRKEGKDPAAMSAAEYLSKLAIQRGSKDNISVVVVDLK
Change,relative binding score [%]
E4N,16.6
D153L,-10.2
P36R,40.2
L169Q,8.62
P37A,30.2
E4L,60.8
Q2F,72.2
A175K,47.5
E129F,47.7
T1I,62.2

# Set 3 — target: CCNB1, cyclin fold, Cln2 fusion (human); method: yeast growth competition, sequencing; medium: yeast; notes: weak parent motif; reference: not given; reading: higher = stronger binding
# Starting sequence: CDKN1A docking peptide (human); SKACRRLFGPVDS
Change,normalised enrichment score
SKACRRYFGPVDS [L7Y],0.378
SKQCRRLFGPVDS [A3Q],0.0833
SKACRRLFGPVDA [S13A],0.739
SKNCRRLFGPVDS [A3N],-0.208
SIACRRLFGPVDS [K2I],0.246
SKACKRLLGPVDS [R5K F8L],0.191
SKACRRLFGRVDS [P10R],0.442
SKACRRLFHPVDS [G9H],0.271
SKACRRLGGPVDS [F8G],0.28
SKACRRLFGPVNS [D12N],0.3
SKACRRLEGPVDS [F8E],-0.396
SKACRRLFGPVWS [D12W],0.395

# Mixed results
Molecule,target,test,test system,conditions,how to read,quantity,value
"PhoQ, residues 284 288 289 292 302 303 ALAMYF","PhoP, residues 12 14 15 18 19 HEGLL (Escherichia coli, UniProt P23836)","Sort-seq, item: YFP reporter",E. coli,"PhoQ-PhoP variant library, with: 10 µM Mg2+","reference: high Mg2+ state, higher = stronger signaling",fold induction,0.728

# For quick reference, copied from above (set 3):
Change,normalised enrichment score
SKACRRYFGPVDS [L7Y],0.378
SKQCRRLFGPVDS [A3Q],0.0833
SKACRRLFGPVDA [S13A],0.739
SKNCRRLFGPVDS [A3N],-0.208
